Experimental data from different studies.
Each line is one published result; not all experiments were run side by side. ± marks the error that the study gave.
Cell line: HepG2

The CC50 of `NC(=O)c1cc(-c2cccs2)ccc1OCCc1cccc(F)c1` is reported as 10 ± 1.7 µM (galactose medium; 3 (unit not given)).
For `O=C/C=C/c1ccccc1`, the viability was over 90% (MTT; 3.1 to 50 µg/mL, 48 h, 10% FBS).
The selectivity index of `C[n+]1cc2c3c(ccc2c2ccc4cc5c(cc4c21)OCO5)OCO3` is reported as 32 (72 h; reference: HepG2 CC50 over EC50).
`Cc1cnc(Nc2ccnc3ccc(-c4ccc(S(=O)(=O)N5CCOCC5)cc4)cc23)s1` has a TC50 of over 20 µM (cytotoxicity, MTT; 48 h).
The CC50 of `NC(=O)c1cc(-c2ccsc2)cc(F)c1OCCc1cccc(F)c1` is reported as 24 ± 7 µM (galactose medium; 3 (unit not given)).
For `Cc1cc2c(=O)n(Cc3cncnc3)c(=S)[nH]c2cn1`, the LD50 was over 100 µM (24 h).
`Fc1cccc(COc2ccc(Nc3nncc4cc(-c5cccc(N6CCOCC6)c5)ccc34)cc2Cl)c1` has a TC50 of over 15 µM (cytotoxicity, MTT; 48 h).
For `Cc1c2ccccc2c(C)c2c1ccc1ccccc12`, “micronuclei fold increase” read 1.2 fold (maximum tested, 24 (unit not given); reference: vehicle).
The viability of `OB(O)CSc1nc2ccccc2n1Cc1ccc(C(F)(F)F)cc1C(F)(F)F` is reported as 100% (XTT; 64 mg/L).
`N.N.[Cl][Pt][Cl]` gave a relative survival of 48% (maximum tested, 24 h; reference: vehicle).
The CC50 of `CS(=O)(=O)Nc1ncn(-c2cc(F)c(COc3ccc(OS(=O)(=O)F)cc3)c(F)c2)n1` is reported as over 40 µM.
For `O=S(=O)(c1ccc(-c2ccc3ncccc3c2)cc1)N1CCOCC1`, the TC50 was over 20 µM (cytotoxicity, MTT; 48 h).
The TC50 of `Fc1cccc(COc2ccc(Nc3nncc4ccc(-c5cccc(N6CCOCC6)c5)cc34)cc2Cl)c1` is reported as over 15 µM (cytotoxicity, MTT; 48 h).
The CC50 of `NC(=O)c1cc(Br)ccc1OCCc1cccc(F)c1` is reported as 52 ± 0.5 µM (galactose medium; 3 (unit not given)).
`O=S(=O)(c1ccc(-c2ccc3nccc(Nc4cnccn4)c3c2)cc1)N1CCOCC1` gave a TC50 of over 20 µM (cytotoxicity, MTT; 48 h).
For `Cc1cscc1-c1ccc(OCCc2cc(F)cc(F)c2)c(C(N)=O)c1`, the CC50 was 37 ± 2 µM (galactose medium; 3 (unit not given)).
For `O=S(=O)(c1ccc(-c2ccc3nccc(Nc4cccnc4)c3c2)cc1)N1CCOCC1`, the TC50 was over 20 µM (cytotoxicity, MTT; 48 h).
`O=C(NC1COC1)c1cc(-c2ccoc2)ccc1OCCc1cccc(F)c1` gave a selectivity ratio of 1 (3 (unit not given); reference: CC50 glucose over CC50 galactose).
`O=c1ccc2ccccc2o1`: “probability of response” 0.01% (item: cell count; concentration not given, 1 h, ATP, GSH, MMP, ROS panel).
`O=[N+]([O-])c1ccc(Nc2ccnc3ccc(-c4ccc(S(=O)(=O)N5CCOCC5)cc4)cc23)cn1` has a TC50 of over 20 µM (cytotoxicity, MTT; 48 h).
`CN1CCCN(S(=O)(=O)c2ccc(-c3ccc4ccnc(Nc5ccc(OCc6cccc(F)c6)c(Cl)c5)c4c3)cc2)CC1` has a TC50 of over 15 µM (cytotoxicity, MTT; 48 h).
The CC50 of `NC(=O)c1cc(C2CC2)ccc1OCCc1cccc(F)c1` is reported as 44 ± 5 µM (galactose medium; 3 (unit not given)).
With `CN1CCN(S(=O)(=O)c2ccc(-c3ccc4c(Nc5ccc(OCc6cccc(F)c6)c(Cl)c5)cnnc4c3)cc2)CC1` the TC50 was over 15 µM (cytotoxicity, MTT; 48 h).
With `CNC(=O)c1cc(C)ccc1OCCc1ccc(Br)cc1` the selectivity ratio was under 1 (3 (unit not given); reference: CC50 glucose over CC50 galactose).
The TC50 of `Fc1cccc(COc2ccc(Nc3nccc4cc(-c5cccc(N6CCOCC6)c5)ccc34)cc2Cl)c1` is reported as over 15 µM (cytotoxicity, MTT; 48 h).
`[Cl][Cd][Cl]` has a micronucleated cells of 1.7% (maximum tested).

Repeated from above:
`O=c1ccc2ccccc2o1`: “probability of response” 0.01% (item: cell count; concentration not given, 1 h, ATP, GSH, MMP, ROS panel).
The TC50 of `Fc1cccc(COc2ccc(Nc3nncc4ccc(-c5cccc(N6CCOCC6)c5)cc34)cc2Cl)c1` is reported as over 15 µM (cytotoxicity, MTT; 48 h).
The CC50 of `NC(=O)c1cc(-c2cccs2)ccc1OCCc1cccc(F)c1` is reported as 10 ± 1.7 µM (galactose medium; 3 (unit not given)).
